Published values gathered from unrelated publications.
Compare with care: the assays were run in different laboratories. “And” joins repeats or separate records; there may be more than shown. ± gives the spread as reported.

SMILES | tested on | assay | test system | conditions | how to read | measurement | result
CCCCN1C[C@H](O)[C@@H](O)[C@@H](O)[C@H]1CO | sample BC patient fibroblasts | Gb3 level lowering, LC-MS/MS, item: Gb3 d18:1/24:1 | – | 216 h | – | IC50 | 23.4 µM
Nc1cccc2c1C(=O)N(C1CCC(=O)NC1=O)C2=O (centres unmarked) | RPMI-8226 | flow cytometry, item: CD212 | – | concentration not given | relative to: comparator compound alone | surface marker level | 333%
CO[C@@H]1[C@H](N(C)C(=O)c2ccccc2)C[C@H]2O[C@]1(C)n1c3ccccc3c3c4c(c5c6ccccc6n2c5c31)C(=O)NC4 | iCell Cardiomyocytes (hiPSC-derived) | CellTiter-Glo | – | concentration not given, 24 h | relative to: control | ATP level | 105%
O=c1[nH]nc(OCCCc2ccc(Cl)cc2)c(NCc2cccnc2)c1Br | HEK-293T | RNA-seq GSEA, item: HALLMARK_MITOTIC_SPINDLE | – | concentration not given | direction not given | normalized enrichment score | 0.768
Nc1ncnc2c1ncn2[C@@H]1O[C@H](CO)[C@@H](O)[C@H]1O | activated human T cells | – | – | 1 µM | higher = more proliferation | T cell proliferation | 68.9 a.u. and 68.6 a.u. and 67.8 a.u.
O=C(/C=C/C=C/C=C/C1CCCCC1)NC1=C[C@@](O)(/C=C/C=C/C=C/C(=O)NC2=C(O)CCC2=O)[C@@H]2O[C@@H]2C1=O | SW-403 | cell growth, CellTiter-Glo | – | 78 h | – | GI50 | 17.5 µM
Cc1c[nH]c(=O)[nH]c1=O | – | binding, equilibrium dialysis LC-MS | – | 5 µM, thermostabilized A2AR-BRIL construct | relative to: no-protein control, direction not given | z-scored log2 fold change | 0.545
COc1cc(-c2ccccc2)ncc1C(=O)Nc1ccc2c(=O)[nH]c(-c3ccc(C(C)(C)O)cc3)nc2c1 | Apc Q1405X mutant organoids | organoid area, live-cell imaging | mouse small intestinal organoids | 144 h, Tnks1 genotype Tnks1+/- | – | EC50 | 0.334 µM
CC(C)NCC(O)c1ccc(O)c(O)c1 (centres unmarked) | mouse ventricular cardiomyocytes | – | – | dose not given, 0.399 s | – | sarcomere length | 1.8 µm
COc1cc2c(N3CCN(C(=O)Nc4ccc(OC(C)C)cc4)CC3)ncnc2cc1OCCCN1CCCCC1 | iCell Cardiomyocytes (hiPSC-derived) | CellTiter-Glo | – | concentration not given, 24 h | relative to: control | ATP level | 102%
C=CC(=O)N1CCC[C@@H](c2ccc(C(N)=O)c3[nH]ccc23)C1 | Ramos | calcium flux, FLIPR | – | 2 h preincubation | – | maximum inhibition | 34.4%
NC(=O)C[C@H](N)C(=O)O | – | binding, equilibrium dialysis LC-MS | – | 5 µM, thermostabilized A2AR-BRIL construct | relative to: no-protein control, direction not given | z-scored log2 fold change | 0.224
Clc1nc(NCc2ccco2)c2[nH]cnc2n1 | FD iPSC-derived cardiomyocytes | alternative splicing, RNA-seq, item: DPH3 exon chr3:16264154-16264229 | – | unit not given | relative to: DMSO minus compound | ΔPSI | 0.204
CCOC(=O)CSc1nc(-c2ccc(Cl)cc2)c2c(NC(=O)c3ccccc3)nnc-2[nH]1 | KM12 | SRB | – | 10 µM, NCI60 single-dose screen, colon cancer | relative to: untreated | cell growth | 100%
CS(=O)(=O)CCNCc1ccc(-c2ccc3ncnc(Nc4ccc(OCc5cccc(F)c5)c(Cl)c4)c3c2)o1 | iCell Cardiomyocytes (hiPSC-derived) | CellTiter-Glo | – | concentration not given, 24 h | relative to: control | ATP level | 102%
COc1cc(N2CCC(N3CCN(C)CC3)CC2)ccc1Nc1ncc(Cl)c(Nc2ccccc2P(C)(C)=O)n1 | KARPAS-299 (NPM1-ALK) | cell viability | – | – | – | Emax | 76.2%
CCCCCCNC(=O)n1cc(F)c(=O)[nH]c1=O | SW-403 | LC-MS, item: Cer(d18:1/16:0) | – | 0.3 µM | – | ceramide level | 27.5 ± 1.9 pmol/mg protein
COc1cnc2cccc(N3CCc4c(cc(Cn5ccnc5C)cc4-c4cn(C)nc4C(F)(F)F)C3=O)c2c1 | TOV21G | cell growth, inhibitor | – | 120 h | – | EC50 | 1.09 µM
CN1CCN(c2ccc3nc(-c4c(N)c5c(F)cccc5[nH]c4=O)[nH]c3c2)CC1 | iCell Cardiomyocytes (hiPSC-derived) | xCELLigence Cardio impedance | – | concentration not given, 2 h | relative to: control | beat amplitude | 102%
CC1(C)COc2ccc(F)cc2CN2c3nc4c(cnn4cc3OC[C@H]2C(F)F)C(=O)N1 | KARPAS-299 (NPM1-ALK) | cell viability | – | – | – | Emax | 73.4%
CC(=O)c1c(C)c2cnc(Nc3ccc(N4CCNCC4)cn3)nc2n(C2CCCC2)c1=O | MCF7/luciferase, wild type | cell proliferation | – | – | – | maximum inhibition | 73.5%
CCOc1cc2ncc(C#N)c(Nc3ccc(OCc4ccccn4)c(Cl)c3)c2cc1NC(=O)/C=C/CN(C)C | iCell Cardiomyocytes (hiPSC-derived) | xCELLigence Cardio impedance | – | concentration not given, 2 h | relative to: control | beat amplitude | 100%

SMILES | tested on | assay | test system | conditions | how to read | measurement | result
C=Cc1c2[n-]c(c1C)/C=c1\[n-]/c(c(C)c1C=C)=C\c1[n-]c(c(CCC(=O)O)c1C)/C=c1\[n-]c(c(C)c1CCC(=O)O)=C2.[Sn+4] | SH-SY5Y | RNA-seq, item: ITGA2 mRNA | – | 5 µM, 5 h | relative to: untreated cells | fold change | 2.49
COc1ccc(NC(=S)N/N=C/c2cccc3cc4ccccc4nc23)cc1 | HeLa | TMRE flow cytometry | – | IC12.5, 48 h, unit not given, together with: N-acetylcysteine | relative to: DMSO control | mitochondrial membrane potential | 1.11 ± 1.28
O=C(O)c1ccc(-c2c[nH]c3ncc(-c4ccccc4)cc23)cc1C1CCCC1 | SK-OV-3 | ATP | – | 1 µM, 4 days, 3D gellan gum culture | relative to: untreated | relative cell number | 96.2%
Cn1cc(Nc2nccc(-c3ccc4c(c3)CN(C3COC3)CC[C@H]4NC(=O)c3cn(C(C)(C)C)nn3)n2)cn1 | mouse splenic B cells | item: PEDF signalling | – | 30 mg/kg, IgD-activated in vivo | relative to: vehicle, direction not given | pathway activation z-score | 3.16
C=CC(=O)N1C/C(=C\c2ccc([N+](=O)[O-])cc2)C(=O)/C(=C/c2ccc([N+](=O)[O-])cc2)C1 | ARPE-19 HiBiT fibulin-3 | HiBiT luminescence | – | 1.66 µM | – | fibulin-3 level | -38.4%
Clc1ccc(Nc2nnc(Cc3ccncc3)c3ccccc23)cc1 | iCell Cardiomyocytes (hiPSC-derived) | CellTiter-Glo | – | concentration not given, 24 h | relative to: control | ATP level | 98.5%
CC/C(=N\NC(=O)NCc1cccc(O)c1)c1ccc(O)c(C)c1O | SK-OV-3 | gene expression, microarray, item: IDO1 | – | 10 µM, 24 h | relative to: DMSO | log ratio | -3.83
COc1cc2ncnc(Cc3ccc4cnn(C)c4c3)c2cc1OC | A549 | mitochondrial oxygen consumption, Seahorse XF96 | – | 10 µM | – | inhibition | 24%
CCCCc1nc(Cl)c(CO)n1Cc1ccc(-c2ccccc2-c2nn[nH]n2)cc1 | human PBMC | RNA-seq, item: C1QTNF1 mRNA | – | 10 µg/mL, 24 h | relative to: untreated control | log2 fold change | 2.93
Cc1cc(Nc2ncc(Cl)c(Nc3ccccc3S(=O)(=O)C(C)C)n2)c(OC(C)C)cc1C1CCNCC1 | CLB-GE | phosphoproteomics LC-MS/MS, item: ARHGAP39 phosphorylation | – | 200 nM, 60 min | relative to: untreated | log2 fold change | -1.73
c1ccc(-c2cccc(Cc3ncnc4ccccc34)c2)cc1 | A549 | mitochondrial oxygen consumption, Seahorse XF96 | – | 10 µM | – | inhibition | 65%
c1ccc2[nH]ccc2c1 | HCT-8 | RNA-seq, item: SLC43A2 | – | concentration not given | – | mRNA level, LS mean | 119 counts per million
COc1cc(/C=C/C(=O)N2CCC=CC2=O)cc(OC)c1OC | MDA-MB-468 | quantitative RT-PCR, item: NDUFB4 | – | 30 µM, 8 h | relative to: untreated cells | mRNA level | 79.5 ± 8.9%
Cn1cc(-c2ccc3nnc(Sc4ccc5ncccc5c4)n3n2)cn1 | iCell Cardiomyocytes (hiPSC-derived) | cellular impedance | – | concentration not given, 24 h | relative to: control | cell index | 99.5%
COC(=O)c1cc(C(C)=NNc2nc(-c3ccc4c(c3)OCCCO4)cs2)ccc1O | T47D | annexin V/PI flow cytometry | – | 20 µM, 72 h | – | apoptotic cells | 16.8 ± 1.63%
CC#CC(=O)N1CCC[C@H]1c1nc(-c2ccc(C(=O)Nc3ccccn3)cc2)c2c(N)nccn12 | Ramos | calcium flux, FLIPR | – | 1 h preincubation | – | maximum inhibition | 87.2%
C[C@]12O[C@H](C[C@]1(O)CO)n1c3ccccc3c3c4c(c5c6ccccc6n2c5c31)CNC4=O | iCell Cardiomyocytes (hiPSC-derived) | CellTiter-Glo | – | concentration not given, 24 h | relative to: control | ATP level | 98.5%
CCn1cc(-c2cc(Cn3ccoc3=N)cc3c2CCN([C@@H](C)c2cc(OC)ccn2)C3=O)c(C(F)(F)F)n1 | SKMEL31 | cell growth | – | 120 h | – | EC50 | > 30 µM
Clc1ccc(C2(c3ccc(-c4cn[nH]c4)cc3)CCNCC2)cc1 | SK-OV-3 | ATP | 2D monolayer culture | 0.1 µM, 4 days | relative to: untreated | relative cell number | 91.7%
CCn1cc(-c2cc(Cn3ccnc3)cc3c2CCN([C@H](c2cc(OC)ccn2)C2CC2)C3=O)c(C(F)(F)F)n1 | HuH-1 | cell growth, inhibitor | – | 120 h | – | EC50 | 26.6 µM
CCCCN1CCN(c2ccc3[nH]c(-c4ccc5[nH]c(-c6ccc(OCC)cc6)nc5c4)nc3c2)CC1 | BT-549 | SRB | – | 10 µM, 48 h | – | growth percent | 83.9%
Cn1cc(-c2ccc(-c3cncc(Cl)c3N3CCC4(CCNC4=O)CC3)cc2)cn1 | COLO 205 | gene expression, microarray, item: ULBP1 mRNA | – | concentration not given, 2 h | relative to: untreated cells | log2 fold change | 4.92

Some of these lines once more:
SMILES | tested on | assay | test system | conditions | how to read | measurement | result
CCCCCCNC(=O)n1cc(F)c(=O)[nH]c1=O | SW-403 | LC-MS, item: Cer(d18:1/16:0) | – | 0.3 µM | – | ceramide level | 27.5 ± 1.9 pmol/mg protein
CN1CCN(c2ccc3nc(-c4c(N)c5c(F)cccc5[nH]c4=O)[nH]c3c2)CC1 | iCell Cardiomyocytes (hiPSC-derived) | xCELLigence Cardio impedance | – | concentration not given, 2 h | relative to: control | beat amplitude | 102%
